Published values collected from several papers.
Each numbered part is a random draw from the data of one study; scales do not carry over between parts.

Sample 1
Target: RING finger protein unkempt homolog, zinc fingers 1-6, SBP tag (UNK, Homo sapiens, UniProt Q9C0B0, residues 30-357)
UniProt Q9C0B0, sequence (30-357, looked up): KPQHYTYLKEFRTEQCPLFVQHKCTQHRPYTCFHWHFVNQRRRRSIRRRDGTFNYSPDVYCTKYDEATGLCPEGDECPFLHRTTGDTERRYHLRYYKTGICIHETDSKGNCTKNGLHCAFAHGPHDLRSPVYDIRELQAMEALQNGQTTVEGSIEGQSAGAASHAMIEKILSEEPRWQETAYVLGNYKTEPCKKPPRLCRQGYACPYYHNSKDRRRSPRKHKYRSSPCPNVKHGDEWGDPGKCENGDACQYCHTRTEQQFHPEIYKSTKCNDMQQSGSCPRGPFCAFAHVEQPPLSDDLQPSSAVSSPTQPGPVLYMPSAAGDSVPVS
Technique: RNA Bind-n-Seq
Molecule type: RNA
Sample: in vitro
Concentration: 100 nM
Notes: RNA with constant flanks, vertebrate orthologous sites, ends assumed
Baseline: input RNA pool
Reading: higher = stronger binding
Quantity: bound/input enrichment
Constant ends, left off below: GGGAGUUCUACAGUCCGACGAUC … CAACAGAGGAUUGAGCAUCA
CCUACAAUAAUGAAAACCUACAGGAAUUUUUUUAUUUUACAUUUUCCCCUUAGGCAUAUUUAGUAUUUUUUCCCCAGGCAGAUCAUUCUGAGUGUGCGAGUGUGUGUGCACAUGUUACAA: 2.82 ratio
AAUCCCAUGUAGGUUUUUGUAAGCAAAAAUCUUACUGUACUUGAAUGUGUCCUGUUUUGUUAGCACACCUAGAUUUGCUGUAACUGUACUCGUGUCCCAGUAUCUAAUUUCUUUCUAUGA: 0.469 ratio
UUCUCCUGGGUUAGAGCGGGGUCUCCUUCUACAUCUCCCGUGAGGGGAAAAAGCCCCAAAUAGACUCCUUACACAUCUGAUUAGAGUGUUCUGUCUCUGCCAUCUACUUGUAUAUACAUG: 0.655 ratio
CACAUCUGGUGAUAUUUGGCCUGGCCUUUCAGCUUAUGAUAAUAGUCCAAGAUCACCUCAUAGUCCAUCACCUAUUGCCACACCACCUAGUCAGAGUUCAUCUUGCUCAGAUGCCCCCAU: 1.49 ratio
AAUGGCUUUUGCUUCAUGAAAAAGACUAAAAAAUAGUCCCCUCAAUUAAAAAUGCCUAAAUAGCUAUUUUAAAAAUCAAAAUGUUUAAAUUUCGUAAAUCACCUGAUGUCACUACACGCC: 0.773 ratio
UCCUCAACUUGUUCUAGCUUGUGACCCUUCAAAGUUGGGUCAUACAUUACUGCUAGACACUGGAAGUUUUCGUUUCUCUCGCUCCACUGAUUAGAAAGGCAGUAAAAAACCAGGAAUAUA: 0.595 ratio
CAGAGCAGUUACCUAGUUCGGAGCAGUCCUUACAGGGAUAUUUCGGUUCAGGCAGCGAAGCGGAUGUAUCCUACCAGCAGGAACCAUCCCAUCAGCCCUCCGUGUCCUGCAACCCCUCCA: 0.416 ratio
AAUUUUUUAAUUUUUUUUAUUUUUUAUUUUCAUUUUUGUUUGGGGAGGGAGAAAAGUUCUUAGCACAAAUGUUUUACAUAAUUUGUACCAAAAAAAAAAAAAAAGGAAACAUAAGAAACG: 1.61 ratio
CCAGUUUGUAUGUACAUUAUUCACAUUCCUCUCUGUUGUGUUUGGGGGAAAAAAGACAUUUUAGCCUUUUUUAAGGUUAUUGAUUUGAUUUCGUUAUUUGGUUGCAUGAAGUUGCCCUUA: 0.36 ratio
AUUUAGAAUGUUAAUAAAUUGCUCUGAGUUUCCUCAAGUCCAUUUUGUAAGAUCAGACCAUAGGUGGGCGUUGUUUCUUUUAAGUUUGUGUACUGUGUCCAAUGUUACAUUUUUAGAAGU: 2.52 ratio
GGUUGAUGUUCUGAAGAACCACUUGGUAAAAGAAGGUCGAGUAGAUGAAGAAAUUGCGCUUAGAAUUAUCAACGAAGGUGCUGCCAUCCUUCGGAGAGAGAAAACCAUGAUAGAAGUAGA: 0.531 ratio

Sample 2
Target: RNA binding protein fox-1 homolog 2, RRM domain, GST-SBP tag (RBFOX2, Homo sapiens, UniProt O43251-10, residues 100-194)
Technique: RNA Bind-n-Seq
Molecule type: RNA
Sample: in vitro
Concentration: 365 nM
Notes: natural RNA segment, single round, ends assumed
Baseline: no-protein control
Reading: higher = stronger binding
Quantity: RBNS enrichment (R)
Constant ends, left off below: GGGAGUUCUACAGUCCGACGAUC … UGGAAUUCUCGGGUGCCAA
Target sequence (chain): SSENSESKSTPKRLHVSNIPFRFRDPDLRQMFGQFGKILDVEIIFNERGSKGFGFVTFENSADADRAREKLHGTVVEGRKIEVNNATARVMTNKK
ACCUCACUUUGGCCCGUCCCCCCUCCCAACACUUCUGUAUCCUCGCCCUGCCGCCCCAGCCUGGACGCUCUGCGUGGAAGUGCGUGUUUGUAGCAGCUCGGGCCUCAUCU: 0.333
UGUGCUUGUUCCAAAUGAGCAGCUGGCAUCCGAGUGGUGUCCUGUGUGGGCUGAUAGUUGAUCACACAUUGUGCUUUUGAUUUUUGCAUUUGGUGAUGAAUAUUUUAUAC: 0.531
GAACAUUUAAAUAUAUUUAUAUUCCUGGAGAUACACAUUCUCAUUUUUGUUGGUUUAUUAUAAAUUAUUCUUCUAGAUGCAUCUUUUAUAACUAGGAUUUCAUUUUGUGU: 3.55
UGUGUAUAUAGUAUUCUCGAGAUGAGCGUAUGUGUGUCUGUUUAAAAGUCACCUUGUUUCCUACAUGAUUUUAGUCAUACCCAAACGUCCUCAGAAUCCCUACAUCCUGC: 0.301
CACCUAGAGCUGCACAGGGGGCUUUCGGCACUUCCCUGGAACAGUUGUAGGCCUGGCCUUUGCCCAGGCAAUGGACCUUUGAUGCGAGGAACCUUGCUACUUCCCCACUG: 0.27
AGUUUAUUUGCUUUUUUUAAAAAGGAGAUUAUUCUAAAAUAUAAACUUAUUUGCAUAUAUUGGAGGAGCAUCCACUAUCAGUAUUUCUGUGCUUUAUAAACUAUAUUAGA: 0.846
UUCCUCUUUGUGUAGGUUUCAGCCACAAAACUGUCAUUCACUCUAGGGGACCCCUACUAAAGGGUAACUUCAGGUGUGCAGCCCUGAGCUCCAAGGCUCUGCACCAUGCC: 0.483
GGCUGCCCUGGAACUCACUUUGCAGACCAGGCUGGCCUCGAACUCAGAAAUCCGCCUGCCUCUGCCUCCCAAGUGCUGGGAUUAAAGGCGUGCGCCACCUCCGCCCAGCU: 0.335
AAAUAUUGUCAUAAUAGAAGCACAGCUUGAACAAAAGACUGAAUUCUGAUAUAAACUGUCAAUAUUGCUUUUACCAUGUGUAAGAUUUACUUAGUAAUCACAGAUUUACC: 0.496
CCAGUUUUACGAACAACAGAUUUCUAAAUUAGAGAGGUUAACAAGACAGAUGAUUACUAUGCCUCAUGUGCUGUGUGCUCUUUGAAAGGAAUGACAGCAGACUACAAAGC: 0.57
CUGGUUAAACUGCAGUGAUACAUUUAGGUGGGUGGGGUCAAGGCAUAUGUGGCCUCCGGGAGACACCUGCUUGGAAGGAGGCAGUGAUGGAGAUAGAGCCCCACUCUGAG: 1.26
UGAGCCCCCCAAUCCUCCUCUGUCUUCCAGCCAACCCACAAAGCUGAAUAUAUGCAAUAUCCGUCCGUCUGUCUGGGUCAAGCUCAGCUGUGGGGAGUCCCAGUGGUGGA: 0.952

Sample 3
Target: Interferon regulatory factor 5, full length, phosphomimetic (IRF5, Homo sapiens, UniProt Q13568-2, residues 1-514, K96S/S451D/S453D/S456D/S462D)
Technique: protein-binding microarray
Molecule type: double-stranded DNA, one strand shown
Sample: in vitro
Concentration: 250 nM
Notes: 60-bp whole probe
Added: salmon DNA 0.4 mg/ml
Baseline: random background probes
Reading: higher = stronger binding
Quantity: log fluorescence
Constant ends, left off below: GCCTAGCAC … GTCTTGATTCGCTTGACGCTGCTG
GGCTTTTTTTTTTTTTTTTTGTGCTAG: 0.508 z-score
TTAGGTCTCCTTTTCCTTTCGTGCTAG: 1.39 z-score
ATCACTTTCCACTTGTCTTTGTGCTAG: 2.13 z-score
TTAGGTATCGATCTCGGTTAGTGCTAG: 5.66 z-score
TTAGGTATCGACTTTCGGTTAGTGCTA: 10.2 z-score
TTAGGTTTCGGACTGGGATAGTGCTAG: 5.32 z-score
GACGGTCTCGGACTGGGGAAGTGCTAG: -0.467 z-score
GACGGTCTGGGGACTGGGGACGTGCTA: -0.485 z-score
TCAGATTTCAGTTTTCTACTGTGCTAG: 2.05 z-score
CACGAACTGAGTCTCGAGACGTGCTAG: -0.081 z-score
TTAGATTTCAGTTTCGATCAGTGCTAG: 10.1 z-score
TTAGAACTGAGTATCGACTAGTGCTAG: 3.36 z-score
TTAGGACTGCTTATCTTTTAGTGCTAG: 0.0618 z-score
TTAGGTATCATACTGCTTTAGTGCTAG: 0.745 z-score
TTTTTTTTTTTTTTTTTACTGTGCTAG: 1.29 z-score
GACGGACTGGGGTTCGGGACGTGCTAG: -0.776 z-score
TTACGACTGCTTATCCTTTAGTGCTAG: 0.757 z-score
GACGTTATCGGGACTGGAGACGTGCTA: 1.03 z-score
GGTGCTCTGCAGCTCAGGCAGTGCTAG: -0.645 z-score
TCATGTTCCCTCATCAGACTGTGCTAG: 0.281 z-score
TCAGTCACCCATCTCAGACTGTGCTAG: -0.117 z-score
GACGGTTTCGGACTGGGGTCGTGCTAG: 4.49 z-score
TTAGGTCTCCTTCTCCTTAAGTGCTAG: -0.00441 z-score
TTAGGTATCCTTATCCTGTAGTGCTAG: 0.0426 z-score
GACGATATCGGGTTTTGAGACGTGCTA: 1.66 z-score

Sample 4
Target: Centromere-binding protein 1, full length, N-terminal tag (CBF1, Saccharomyces cerevisiae, UniProt P17106, residues 1-351)
UniProt P17106, sequence (whole entry, looked up): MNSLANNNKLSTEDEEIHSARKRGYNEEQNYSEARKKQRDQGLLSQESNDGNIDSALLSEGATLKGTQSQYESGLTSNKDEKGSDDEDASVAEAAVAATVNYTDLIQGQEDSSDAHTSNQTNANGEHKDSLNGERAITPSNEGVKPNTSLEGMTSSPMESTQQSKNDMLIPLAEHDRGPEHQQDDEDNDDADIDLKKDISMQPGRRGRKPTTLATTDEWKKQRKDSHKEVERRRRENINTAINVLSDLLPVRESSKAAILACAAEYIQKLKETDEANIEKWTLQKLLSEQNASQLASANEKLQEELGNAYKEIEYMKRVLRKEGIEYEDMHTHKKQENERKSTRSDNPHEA
Technique: protein-binding microarray
Molecule type: double-stranded DNA, one strand shown
Sample: in vitro
Concentration: 0.8 µM
Notes: whole 60-bp probe, no competitor
Reading: higher = stronger binding
Quantity: fluorescence intensity
Constant ends, left off below: … GTCTTGATTCGCTTGACGCTGCTG
CTAACTTACTTATGTCACATGCAAGACGTAGACTTC: 3030 a.u.
GAATATATAAAAGAAGACGTGCTCTAAACAAAGTAG: 554 a.u.
GAAAAATCGCATTGATTCGTCACCGCGCGGTAGTAG: 484 a.u.
CTAAATTGCGGGCAGCACATGTATATATTATACTTC: 669 a.u.
TGTACGAAGCTATCGCTCGTGTATATAGTAGTTAGG: 536 a.u.
CTATGCCTTTACCCGCACGCTTAATATAATTTTTTC: 557 a.u.
CTAGTCTACTTCTTTCACGTTACCATTTACTAATTC: 875 a.u.
TGTACGAAGCTATACAGCGTGACTATAGTAGTTAGG: 983 a.u.
CTAAGCACACGCCCTCACGTGAGTGAATTTGCCTTC: 7640 a.u.
TGTACGAAGCTATGCGTCACCAGTATAGTAGTTAGG: 511 a.u.
CTACGCGCCTAACATATCATGATGATTGGGTGTTTC: 536 a.u.
GAACCCGTGGTGGCGCTGGTGACGAAGAGGATCTAG: 511 a.u.
CTAATTCGTGGTAGTCACGCATACGTTTGTCAGTTC: 930 a.u.
CTAATTTAAAGAAATCCCGTCACGCCTGGAATGTTC: 765 a.u.
CCTAACTACTATATCCACCTGCCATAGCTTCGTACA: 523 a.u.
CTATTATAGTAAAGTCACGTCAACCTTTGTTACTTC: 674 a.u.
CTAGAGCGATGCCATCATCACATGCACGTTTTCTTC: 2200 a.u.
TGTACGAAGCTATATCACCTATTTATAGTAGTTAGG: 511 a.u.
CTATAAATACTAGGTCAGATGAATAAAGAGCAGTTC: 648 a.u.
GAAATCGGCGGTGATGGTGATGATGAATCATCTTAG: 501 a.u.
CTAACTTCTCGGCATGGGGTGAGTAAATTCATATTC: 529 a.u.
TGTACGAAGCTATCCCTCACCTTTATAGTAGTTAGG: 497 a.u.
CTACTGGAGGTTAATCACCTGTTGTCTTACTATTTC: 768 a.u.
CTAGGAGGTTCTGAACGCATGACATGCTCCTCTTTC: 689 a.u.
CTAAAAAATCAAGAAAACGTGCCACGAGTGTGGTTC: 917 a.u.

Repeated from above (sample 4):
CTAGGAGGTTCTGAACGCATGACATGCTCCTCTTTC: 689 a.u.
GAATATATAAAAGAAGACGTGCTCTAAACAAAGTAG: 554 a.u.
CTATTATAGTAAAGTCACGTCAACCTTTGTTACTTC: 674 a.u.
CTAAGCACACGCCCTCACGTGAGTGAATTTGCCTTC: 7640 a.u.
TGTACGAAGCTATACAGCGTGACTATAGTAGTTAGG: 983 a.u.
GAACCCGTGGTGGCGCTGGTGACGAAGAGGATCTAG: 511 a.u.
TGTACGAAGCTATCGCTCGTGTATATAGTAGTTAGG: 536 a.u.
CCTAACTACTATATCCACCTGCCATAGCTTCGTACA: 523 a.u.
CTAGAGCGATGCCATCATCACATGCACGTTTTCTTC: 2200 a.u.
TGTACGAAGCTATGCGTCACCAGTATAGTAGTTAGG: 511 a.u.
CTAGTCTACTTCTTTCACGTTACCATTTACTAATTC: 875 a.u.
